Assay results of several laboratories.
Each numbered part is a random draw from the data of one study; scales do not carry over between parts. Positions count from the first letter of the parent shown.

Study 1 — technique: universal PBM; form: double-stranded DNA, one strand shown; medium: in vitro; tested at: 600 nM; direction: higher = stronger binding
Target: Sal-like protein 4, full length isoform A (SALL4, Homo sapiens, UniProt Q9UJQ4, residues 1-1053)
UniProt Q9UJQ4, sequence (whole entry, looked up): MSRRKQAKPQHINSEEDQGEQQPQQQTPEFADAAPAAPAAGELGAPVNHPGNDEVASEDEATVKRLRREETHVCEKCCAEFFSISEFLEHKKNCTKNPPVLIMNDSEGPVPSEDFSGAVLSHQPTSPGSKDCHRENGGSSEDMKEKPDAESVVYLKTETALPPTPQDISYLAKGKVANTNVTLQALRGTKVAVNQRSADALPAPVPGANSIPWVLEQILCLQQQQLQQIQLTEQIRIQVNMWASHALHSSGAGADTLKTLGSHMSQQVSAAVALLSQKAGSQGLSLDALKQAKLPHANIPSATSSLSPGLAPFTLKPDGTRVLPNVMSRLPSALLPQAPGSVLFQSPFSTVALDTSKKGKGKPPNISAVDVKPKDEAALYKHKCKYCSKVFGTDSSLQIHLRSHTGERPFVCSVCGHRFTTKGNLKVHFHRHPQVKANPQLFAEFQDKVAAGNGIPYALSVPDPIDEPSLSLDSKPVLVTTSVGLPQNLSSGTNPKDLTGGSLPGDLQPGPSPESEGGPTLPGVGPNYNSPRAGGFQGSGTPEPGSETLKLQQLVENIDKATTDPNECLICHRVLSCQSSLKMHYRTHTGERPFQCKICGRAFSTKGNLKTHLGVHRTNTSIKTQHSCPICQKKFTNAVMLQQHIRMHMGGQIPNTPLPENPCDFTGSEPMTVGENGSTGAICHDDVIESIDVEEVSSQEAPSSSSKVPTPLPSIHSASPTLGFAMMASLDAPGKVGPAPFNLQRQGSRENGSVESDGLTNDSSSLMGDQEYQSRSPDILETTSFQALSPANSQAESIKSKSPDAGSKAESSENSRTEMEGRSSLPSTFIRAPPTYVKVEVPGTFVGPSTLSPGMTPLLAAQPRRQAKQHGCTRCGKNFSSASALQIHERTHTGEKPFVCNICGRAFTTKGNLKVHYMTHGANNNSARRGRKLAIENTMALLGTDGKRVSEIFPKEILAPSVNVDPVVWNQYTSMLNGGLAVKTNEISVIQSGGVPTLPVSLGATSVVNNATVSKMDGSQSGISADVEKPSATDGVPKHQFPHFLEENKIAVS
Setting: 8-mer, flanks averaged, mean of replicates
Oligonucleotide | E-score
TCGCACCA | -0.0102
GGACTTAA | 0.011
ATCAGGGC | -0.218
GTCGATTA | 0.216
AGTAGGAA | 0.0838
CACTAGAA | 0.0916
TAGGTAAA | 0.277
CCCCATCC | -0.27
ACCCTACA | 0.0249

Study 2 — technique: RNA Bind-n-Seq; form: RNA; medium: in vitro; tested at: 365 nM; relative to: no-protein control; direction: higher = stronger binding
Target: RNA binding protein fox-1 homolog 2, RRM domain, GST-SBP tag (RBFOX2, Homo sapiens, UniProt O43251-10, residues 100-194)
Setting: natural RNA segment, single round, ends assumed
Residues (chain): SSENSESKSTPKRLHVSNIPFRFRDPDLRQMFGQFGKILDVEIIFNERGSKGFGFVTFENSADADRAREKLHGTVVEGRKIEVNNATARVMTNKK
Oligonucleotide | RBNS enrichment (R)
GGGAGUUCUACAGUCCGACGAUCGCAUGGGCGACCCAUUACAGUAUGAGAUAAGAUUGAGUUCUGAUGCGUUAAACGGAGGUGGCAGAAAUUUGUCAAGAAGGCCUUAUCCAUUUCGAUUGUGUGACAGAUUGUGGAAUUCUCGGGUGCCAA | 0.527
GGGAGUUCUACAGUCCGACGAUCAAGGGGUGAACUUCAGAUGGCUCUUCUUGGUUGUCAGCCCGACUACAUUUGGAAUUAACUGAAGCCAAACUGCUGGGUACACCUGUGAGGAUUUUUUUUUCCUUAAGUAAUGGAAUUCUCGGGUGCCAA | 0.348
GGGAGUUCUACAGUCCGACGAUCAAAAGUUAACCCAGUUGAGAUUUUUAAAAAGUUUUACAAAUACAUAUAACACUUAUGUGCUGGGCUUUCUUUUAAAUGCUUUCCAAGUGUUAACUUGUUUAGUCCCCUUUUGGAAUUCUCGGGUGCCAA | 0.378
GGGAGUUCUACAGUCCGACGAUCUGUGUGUGUCAUACUUCUUUUGGGAGGGGGUUGUUUUCUUCUUUUAUGAAACUCCUACUGGAGCUCAAUUUGUAAUUUAGAAACAUUUAAUUUUGUUAAUCCUGUCUGGGUGGAAUUCUCGGGUGCCAA | 0.808
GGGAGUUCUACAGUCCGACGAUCCAUAUAAAUCUUGCUUAAAUUUUGUCCUAUCCUUUUGUUACCUUAUCAAAUGAAAUAUUACAGCACCUAGAAAAUAAUUUAGUUUUGCUUGCUUCCAUUGAUCAGUCUUUUGGAAUUCUCGGGUGCCAA | 2.01
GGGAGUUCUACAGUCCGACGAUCAGGUACAGUCACCACCACCCUGGAACCAAGGGUCUCACACCAUUGCUCAGUGCUGAACUAUAACUGCCACACGUCCCCUCAUAUCAAAUGGAGCAGUGGCAAUCUCCCUGUGGAAUUCUCGGGUGCCAA | 0.412
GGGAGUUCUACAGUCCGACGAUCUAUGUAUGAAAAAUGAUCCUAGCCUUACACUGAGUACAAUAAUACUUAUAAGCAUGUGAAGAUGUGAUCUUUGUGAUGUUACUUGUACAAACAUAUAUACAUAUCUAUACUGGAAUUCUCGGGUGCCAA | 10.8
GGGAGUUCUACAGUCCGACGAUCGAUUCACUGUAAGUGUUCUGUGGCCUAACUAGUGAGAGAUGCUUCAAAUAAACUAAGUUUUUAUGAGUACAUCUAUAAGGGUCGAUAUUUCAUUUUAUAAAUAACUAAAUUGGAAUUCUCGGGUGCCAA | 0.483
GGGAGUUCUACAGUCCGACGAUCCUCCUCCCCCGCUCCCCAACUUCUCGCCCAGCUGGCCGAGGCGGGGCAACACUAAGGUGCUCUUAGAAACACUAAUGUUCCUCUGGGGCAGCCCCCACCUCCGUCCUGACUGGAAUUCUCGGGUGCCAA | 0.374
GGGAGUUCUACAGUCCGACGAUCCAUUCUCAAAUGCCAGUGUGUUCACAUCUUCGCUCUGGCCAGCCCAUUCUGUAUUUAAAGCUUUUGAGGCCCAAUAAAAUAGUACGUGCUGUCUGCAGCCCUUAUUGAUCUGGAAUUCUCGGGUGCCAA | 0.443
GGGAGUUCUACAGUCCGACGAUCCCUGCCUGUUGUGAUAACCAGCUCUUAGGUAUUUCCUUUCCCUGAGGCUUUCCAUUUAACAUGGAAUCCUUCUCCCCAAGAAGGCUUCUUCCUUGUUUUAGAGGAAGGUAUGGAAUUCUCGGGUGCCAA | 0.253

Study 3 — target: CCND1, cyclin fold, Cln2 fusion (human); technique: yeast growth competition, sequencing; medium: yeast; setting: weak parent motif; relative to: not given; direction: higher = stronger binding
Starting sequence: SAMHD1 docking peptide (human); ASKSRVQLFKDDP
Substitution | normalised enrichment score
ASKSEVQLFKDDP [R5E] | 0.789
ASKSRVVLFKDDP [Q7V] | 0.38
ASKSRVCLFKDDP [Q7C] | 0.444
ASKSRVQLFKDSP [D12S] | 0.572
ASKSRVQPFKDDP [L8P] | 0.0889
ASKSRVQNFKDDP [L8N] | 0.172
ASTSRVQLFKDDP [K3T] | 0.505

Single results of other studies
Molecule | target | test | system | setting | how to read | measurement | value
PhoQ, residues 284 288 289 292 302 303 ALASRC | PhoP, residues 12 14 15 18 19 TPWLV (Escherichia coli, UniProt P23836) | Sort-seq, item: YFP reporter | E. coli | PhoQ-PhoP variant library, together with: 10 µM Mg2+ | relative to: high Mg2+ state, higher = stronger signaling | fold induction | 1.24

Some of these lines once more (study 1):
Oligonucleotide | E-score
TAGGTAAA | 0.277
CCCCATCC | -0.27
ACCCTACA | 0.0249
